# Results pooled from the literature.
# Protocols differ between the studies behind these lines. Values joined by “and” are separate records of one study, mostly repeats; a detail may differ. ± marks the error that the study gave.
SMILES,test,test system,conditions,AUC(0-inf)
O=C(/C=C/c1ccc(O)c(O)c1/C=C/c1ccc(O)c(O)c1)O[C@H](Cc1ccc(O)c(O)c1)C(=O)O,UPLC-MS/MS,"Wistar rat, microcirculation dysfunction model, plasma","oral, 100 mg/kg Salvia miltiorrhiza stem-leaf extract FS",258 ± 213 ng·h/mL
CCN(CC)Cc1cc(Nc2ccnc3cc(Cl)ccc23)ccc1O,,"rat, Wistar, male, plasma","oral, 60 mg/kg, together with: myricetin 5 mg/kg iv",6420 ± 894 ng·h/mL
C=CC(N)CCC(=O)O (stereo not shown),,"male Sprague-Dawley rat, plasma","oral, 10 mg/kg, formulation 8, together with: infant formula 1500 mg/kg",17700 ± 533 ng·h/mL
O=C(/C=C/c1ccc(O)c2c1[C@H](C(=O)O)[C@@H](c1ccc(O)c(O)c1)O2)O[C@H](Cc1ccc(O)c(O)c1)C(=O)O,UPLC-MS/MS,"Wistar rat, microcirculation dysfunction model, plasma","oral, 100 mg/kg Salvia miltiorrhiza stem-leaf extract FS",212 ± 42.5 ng·h/mL
CC(C)=CCC[C@](C)(O[C@@H]1O[C@H](CO[C@@H]2O[C@H](CO)[C@@H](O)[C@H](O)[C@H]2O)[C@@H](O)[C@H](O)[C@H]1O)[C@H]1CC[C@]2(C)[C@@H]1[C@H](O)C[C@@H]1[C@@]3(C)CC[C@H](O[C@@H]4O[C@H](CO)[C@@H](O)[C@H](O)[C@H]4O[C@@H]4O[C@H](CO)[C@@H](O)[C@H](O)[C@H]4O)C(C)(C)[C@@H]3CC[C@]12C,,"Sprague Dawley rat, male, plasma","oral, 86 mg/kg, in frozen ginseng extract",194000 ± 28900 ng·h/mL
CCC[C@@]1(CCc2ccccc2)CC(O)=C([C@H](CC)c2cccc(NS(=O)(=O)c3ccc(C(F)(F)F)cn3)c2)C(=O)O1,,"Sprague Dawley rat, male, plasma","oral, 5 mg/kg, long-chain triglyceride formulation",10600 ± 1090 ng·h/mL
CC(C)=CCC[C@](C)(O[C@@H]1O[C@H](CO)[C@@H](O)[C@H](O)[C@H]1O)[C@H]1CC[C@]2(C)[C@@H]1[C@H](O)C[C@@H]1[C@@]3(C)CC[C@H](O[C@@H]4O[C@H](CO)[C@@H](O)[C@H](O)[C@H]4O[C@@H]4O[C@H](CO)[C@@H](O)[C@H](O)[C@H]4O)C(C)(C)[C@@H]3CC[C@]12C,,"Sprague Dawley rat, male, plasma","oral, 42 mg/kg, in white ginseng extract",29900 ± 8900 ng·h/mL
Cn1nnc2c(C(N)=O)ncn2c1=O,microdialysis,"male athymic rat, intracranial U87 glioma, tumour extracellular fluid","oral, 50 mg/kg, before cediranib",1750 ng·h/mL and 1490 ng·h/mL and 1820 ng·h/mL and 1180 ng·h/mL and 320 ng·h/mL and 1480 ng·h/mL and 1110 ng·h/mL
CCCC[C@H](NC(C)=O)C(=O)N[C@H]1CCC(=O)NC[C@@H](C(=O)N[C@@H](Cc2c[nH]c3ccccc23)C(N)=O)NC(=O)[C@H](CCCNC(=N)N)NC(=O)[C@@H](Cc2ccccc2)NC(=O)[C@H](Cc2c[nH]cn2)NC1=O,,"CD Sprague Dawley rat, male, plasma","subcutaneous, 5.0 mg/kg daily, day 1",4510 ng·h/mL
CC(C)=CCC[C@](C)(O[C@@H]1O[C@H](CO)[C@@H](O)[C@H](O)[C@H]1O)[C@H]1CC[C@]2(C)[C@@H]1[C@H](O)C[C@@H]1[C@@]3(C)CC[C@H](O)C(C)(C)[C@@H]3[C@@H](O[C@@H]3O[C@H](CO)[C@@H](O)[C@H](O)[C@H]3O)C[C@]12C,,"Sprague Dawley rat, male, plasma","oral, 25 mg/kg, pure ginsenoside mixture in water",1200 ± 300 ng·h/mL

# For quick reference, copied from above:
SMILES,test,test system,conditions,AUC(0-inf)
CCC[C@@]1(CCc2ccccc2)CC(O)=C([C@H](CC)c2cccc(NS(=O)(=O)c3ccc(C(F)(F)F)cn3)c2)C(=O)O1,,"Sprague Dawley rat, male, plasma","oral, 5 mg/kg, long-chain triglyceride formulation",10600 ± 1090 ng·h/mL
